Measurements gathered from unrelated publications.
A part holds a random share of what one study measured.
Chain of UniProt O75417 (whole entry, unmodified, looked up): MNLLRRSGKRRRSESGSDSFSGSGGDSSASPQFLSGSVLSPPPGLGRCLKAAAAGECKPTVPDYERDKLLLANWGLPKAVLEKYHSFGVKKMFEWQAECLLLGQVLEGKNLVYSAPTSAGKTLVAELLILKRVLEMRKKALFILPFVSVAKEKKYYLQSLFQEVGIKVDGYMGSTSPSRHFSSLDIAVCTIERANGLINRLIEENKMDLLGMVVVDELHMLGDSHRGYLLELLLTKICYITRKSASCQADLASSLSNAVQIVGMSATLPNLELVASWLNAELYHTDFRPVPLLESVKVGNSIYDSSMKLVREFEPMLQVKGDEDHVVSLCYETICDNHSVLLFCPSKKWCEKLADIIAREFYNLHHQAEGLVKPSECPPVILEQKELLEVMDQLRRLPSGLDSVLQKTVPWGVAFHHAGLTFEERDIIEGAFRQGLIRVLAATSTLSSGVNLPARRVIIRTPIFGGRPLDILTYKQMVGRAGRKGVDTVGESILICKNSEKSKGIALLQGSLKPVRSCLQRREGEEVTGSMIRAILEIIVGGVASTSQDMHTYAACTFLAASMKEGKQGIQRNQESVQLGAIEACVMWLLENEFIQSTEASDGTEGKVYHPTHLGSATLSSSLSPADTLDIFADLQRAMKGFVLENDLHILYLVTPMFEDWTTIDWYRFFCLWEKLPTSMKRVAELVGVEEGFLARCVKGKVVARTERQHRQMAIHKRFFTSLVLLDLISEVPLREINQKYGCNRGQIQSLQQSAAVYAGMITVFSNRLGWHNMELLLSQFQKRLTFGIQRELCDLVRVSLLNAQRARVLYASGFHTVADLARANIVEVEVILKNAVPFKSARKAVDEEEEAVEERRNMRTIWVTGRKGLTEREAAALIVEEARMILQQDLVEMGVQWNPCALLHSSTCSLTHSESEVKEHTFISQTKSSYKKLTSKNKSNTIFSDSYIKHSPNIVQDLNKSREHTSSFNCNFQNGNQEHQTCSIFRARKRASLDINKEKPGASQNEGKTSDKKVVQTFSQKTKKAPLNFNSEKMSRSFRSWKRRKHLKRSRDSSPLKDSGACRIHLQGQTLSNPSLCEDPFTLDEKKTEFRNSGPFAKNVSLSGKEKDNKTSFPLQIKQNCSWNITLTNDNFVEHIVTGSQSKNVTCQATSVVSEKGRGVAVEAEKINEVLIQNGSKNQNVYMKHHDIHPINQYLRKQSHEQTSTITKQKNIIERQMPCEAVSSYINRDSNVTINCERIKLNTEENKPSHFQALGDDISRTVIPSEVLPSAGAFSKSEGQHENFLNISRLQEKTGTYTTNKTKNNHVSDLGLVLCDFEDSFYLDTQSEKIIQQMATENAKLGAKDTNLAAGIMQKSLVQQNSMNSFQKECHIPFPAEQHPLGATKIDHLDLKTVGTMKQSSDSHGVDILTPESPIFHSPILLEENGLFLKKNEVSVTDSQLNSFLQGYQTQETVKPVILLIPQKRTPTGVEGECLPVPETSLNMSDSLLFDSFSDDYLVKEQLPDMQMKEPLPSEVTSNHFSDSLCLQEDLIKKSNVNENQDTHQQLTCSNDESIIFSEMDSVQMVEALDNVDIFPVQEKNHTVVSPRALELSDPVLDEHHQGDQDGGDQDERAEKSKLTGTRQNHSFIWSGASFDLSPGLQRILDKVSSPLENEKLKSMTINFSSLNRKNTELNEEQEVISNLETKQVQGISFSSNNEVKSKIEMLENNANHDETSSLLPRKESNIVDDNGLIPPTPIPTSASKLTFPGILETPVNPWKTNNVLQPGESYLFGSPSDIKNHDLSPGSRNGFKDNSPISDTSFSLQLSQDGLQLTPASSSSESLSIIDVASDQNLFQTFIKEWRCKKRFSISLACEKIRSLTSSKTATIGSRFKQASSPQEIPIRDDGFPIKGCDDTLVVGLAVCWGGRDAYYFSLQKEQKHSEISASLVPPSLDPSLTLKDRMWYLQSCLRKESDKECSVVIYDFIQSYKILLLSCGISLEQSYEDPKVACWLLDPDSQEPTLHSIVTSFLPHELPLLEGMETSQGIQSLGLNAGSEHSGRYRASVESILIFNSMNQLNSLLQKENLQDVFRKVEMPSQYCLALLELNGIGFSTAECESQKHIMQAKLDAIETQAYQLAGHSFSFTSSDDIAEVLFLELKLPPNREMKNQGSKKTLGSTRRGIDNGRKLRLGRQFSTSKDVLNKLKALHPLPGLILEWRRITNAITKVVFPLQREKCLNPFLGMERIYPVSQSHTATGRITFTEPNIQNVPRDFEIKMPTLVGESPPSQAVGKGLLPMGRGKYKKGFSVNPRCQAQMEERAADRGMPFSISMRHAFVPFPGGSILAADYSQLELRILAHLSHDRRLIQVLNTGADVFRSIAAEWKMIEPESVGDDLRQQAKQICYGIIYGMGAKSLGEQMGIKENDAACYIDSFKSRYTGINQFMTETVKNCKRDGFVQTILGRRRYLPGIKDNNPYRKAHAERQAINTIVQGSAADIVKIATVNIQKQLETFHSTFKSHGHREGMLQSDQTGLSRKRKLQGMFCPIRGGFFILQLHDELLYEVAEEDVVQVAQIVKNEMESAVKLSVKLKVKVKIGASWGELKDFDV
Chain of UniProt P9WI81 (whole entry, looked up): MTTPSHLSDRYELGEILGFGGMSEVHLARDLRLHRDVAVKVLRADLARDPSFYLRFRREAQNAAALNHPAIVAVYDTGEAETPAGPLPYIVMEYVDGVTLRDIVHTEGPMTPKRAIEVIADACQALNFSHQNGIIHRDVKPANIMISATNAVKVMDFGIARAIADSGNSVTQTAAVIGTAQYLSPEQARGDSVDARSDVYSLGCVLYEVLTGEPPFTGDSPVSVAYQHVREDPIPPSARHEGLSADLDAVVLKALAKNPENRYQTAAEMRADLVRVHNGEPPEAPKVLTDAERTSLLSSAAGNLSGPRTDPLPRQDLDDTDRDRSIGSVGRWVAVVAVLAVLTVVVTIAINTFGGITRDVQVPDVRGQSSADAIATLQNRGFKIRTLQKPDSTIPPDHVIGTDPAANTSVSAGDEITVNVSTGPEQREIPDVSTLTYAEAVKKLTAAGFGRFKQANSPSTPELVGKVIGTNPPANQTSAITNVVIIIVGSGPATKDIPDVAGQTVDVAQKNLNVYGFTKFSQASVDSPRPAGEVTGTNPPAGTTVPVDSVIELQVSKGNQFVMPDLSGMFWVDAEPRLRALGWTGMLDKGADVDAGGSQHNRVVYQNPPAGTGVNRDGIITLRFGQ

Sample 1 — technique: protein-binding microarray; form: double-stranded DNA, one strand shown; sample: in vitro; tested at: 250 nM; setting: 60-bp whole probe; with: salmon DNA 0.4 mg/ml; relative to: random background probes; reading: higher = stronger binding; all sequences stand within: GCCTAGCAC … GTCTTGATTCGCTTGACGCTGCTG
Target: Interferon regulatory factor 7, full length, phosphomimetic (IRF7, Homo sapiens, UniProt Q92985, residues 1-503, S101K/S471D/S472D/S475D/S476D/S477D/S483D/S484D/S487D)
Construct (chain): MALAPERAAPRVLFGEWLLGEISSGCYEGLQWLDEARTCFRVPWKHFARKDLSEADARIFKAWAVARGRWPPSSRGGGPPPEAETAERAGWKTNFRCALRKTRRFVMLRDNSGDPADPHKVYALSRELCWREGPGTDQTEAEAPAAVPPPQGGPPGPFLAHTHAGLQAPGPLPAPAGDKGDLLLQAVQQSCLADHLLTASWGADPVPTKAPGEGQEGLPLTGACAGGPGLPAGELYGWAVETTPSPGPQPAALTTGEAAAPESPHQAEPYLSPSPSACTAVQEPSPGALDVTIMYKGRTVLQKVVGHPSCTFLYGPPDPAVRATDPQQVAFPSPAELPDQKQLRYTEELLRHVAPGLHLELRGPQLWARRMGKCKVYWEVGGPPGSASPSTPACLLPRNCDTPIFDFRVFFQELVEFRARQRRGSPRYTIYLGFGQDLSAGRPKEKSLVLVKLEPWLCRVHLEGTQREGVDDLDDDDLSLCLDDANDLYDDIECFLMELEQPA
| Sequence | log fluorescence [z-score] |
| --- | --- |
| GACGGTCTCGGCATCGGGACGTGCTAG | -0.139 |
| TTAGGTTCCGACTTTCGGTTAGTGCTA | 3.4 |
| GACGGACTGTACTATCGGGACGTGCTA | -0.399 |
| TTAGGTTTCAGTTCCGATTAGTGCTAG | 4.24 |
| TTAGAACAGAGTATCGATTAGTGCTAG | 0.618 |
| TTTTTTTTTTTTTGGAATGTGTGCTAG | 0.811 |
| TTAGAACTGAGACTGAATTAGTGCTAG | 0.174 |
| TATCCTTCCCCTCTAGGTTCGTGCTAG | 1.51 |

Other studies, line by line
| Molecule | tested on | assay | system | conditions | how to read | quantity | value |
| --- | --- | --- | --- | --- | --- | --- | --- |
| SEH1L (Homo sapiens, UniProt Q96EE3) | NUP88 (Homo sapiens, UniProt Q99567) | cross-linking MS | cell fractions | with: DSSO | – | cross-linked residues | K243 to K680 |
| AGVKRKLFAEDSS | human cyclin A2 | peptide binding, competitive growth sequencing | peptide, Saccharomyces cerevisiae, cyclin A2-Cln2 fusion strain | concentration not given, single-residue mutant peptides | relative to: unfused Cln2 strain, direction not given | median binding score | 6.47 |
| EIF4G3 (Homo sapiens, UniProt O43432) | EIF4A1 (Homo sapiens, UniProt P60842) | cross-linking MS | – | hits only | – | interaction screen | cross-linked |
| CO[C@@H](C)c1c(Nc2ccc([C@@H](N(C)C(=O)C3CCS(=O)(=O)CC3)C(F)(F)F)cc2)cnc2cc(Cl)nn12 | Serine/threonine-protein kinase PknB (pknB, Mycobacterium tuberculosis, UniProt P9WI81) | cell-free assay, competition with immobilised ligand | – | 1 µM | – | remaining binding | 100% |
| YWHAE (Homo sapiens, UniProt P62258) | ATP6V1G3 (Homo sapiens, UniProt Q96LB4) | cross-linking MS | cell fractions | with: DMTMM | – | cross-linked residues | E70 to K26 |
| KAVKRKLFAEDSS | human cyclin A2 | peptide binding, competitive growth sequencing | peptide, Saccharomyces cerevisiae, cyclin A2-Cln2 fusion strain | concentration not given, single-residue mutant peptides | relative to: unfused Cln2 strain, direction not given | median binding score | 5.96 |
| FARSB (Homo sapiens, UniProt Q9NSD9) | FARSA (Homo sapiens, UniProt Q9Y285) | cross-linking MS | cell fractions | with: DSSO | – | cross-linked residues | K467 to K481 |
| NCCc1ccc(O)cc1 | DNA polymerase theta, ATPase domain (POLQ, Homo sapiens, UniProt O75417) | enzyme activity, inhibitor | – | 77 µM | relative to: untreated | remaining activity | 110% |
